Published values of several laboratories.
Numbered parts are unrelated; each lists some results of a single study.

Block 1 — technique: RNA Bind-n-Seq; form: RNA; matrix: in vitro; tested at: not given; baseline: input RNA pool; direction: higher = stronger binding; measurement: bound/input enrichment
Target: RING finger protein unkempt homolog, zinc fingers 1-6, GST-SBP tag (UNK, Homo sapiens, UniProt Q9C0B0, residues 30-357)
Setting: RNA with constant flanks, human and mouse sites, ends assumed
Constant ends, left off below: GGGAGUUCUACAGUCCGACGAUC … CAACAGAGGAUUGAGCAUCA
Construct (chain): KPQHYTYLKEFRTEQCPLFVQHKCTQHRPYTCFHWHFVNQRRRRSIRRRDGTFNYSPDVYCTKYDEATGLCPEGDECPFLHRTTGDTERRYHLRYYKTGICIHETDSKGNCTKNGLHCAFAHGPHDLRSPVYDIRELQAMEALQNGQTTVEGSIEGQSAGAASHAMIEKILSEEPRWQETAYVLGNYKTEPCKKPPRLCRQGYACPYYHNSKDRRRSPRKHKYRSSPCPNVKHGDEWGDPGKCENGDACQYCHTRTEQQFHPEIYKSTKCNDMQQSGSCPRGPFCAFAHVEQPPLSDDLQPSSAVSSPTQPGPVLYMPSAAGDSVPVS
UUCCUGUCGAGAUCCGGUAGCGCAAGAUGCAGAUCUGAGUCAGACAUGGAGAAUGAACGGAAUUCCAAUACCUCCAAGCAGAGAUACUCGGGGAAGGUCCACCUCUGUGUUGCCCGCUAU: 0.0992 ratio
CAGCAUGUCAUAGAAACCUUGAUUGGCAAAAAGCAGCAGAUCUCUCUUGCCACCCAGAUGGUUAGGAUGAUUCUGAAGAUUGAUGACAUCCGUAAGCCUGGAGAAUCUGAAGAAUAAACU: 0.292 ratio
CAGAACUUACGGCCAUGCUGAAGUUGCAGUUUCAUUCAGAUGCUACCUAAAGUUUAUGUUACUAGAGUAAAAAGAUCUCACAGUGAGUUGGUUUGAUAUUUAUAUUGUGGUUCAUGUUUG: 0.39 ratio
UGCUCUUGUAGCCUUUGGUUUUUGUUAUUGUAGAGAACAGAUUCUUUAUACACUUUGUAAAAUUUACGCCAAACCCCAGCUCUCGAACUCUUAUUCUCCCUGUAGCCCUUGCACUGUUGC: 0.919 ratio
CUAAAUACCAUUCCAUUGUUUGUGCAGCUGCUUUAUUCUCCCAUUGAAAACAUCCAAAGAGUAGCUGCAGGGGUCCUCUGUGAACUUGCUCAGGACAAGGAAGCUGCAGAAGCUAUUGAA: 0.324 ratio
ACCCGCUACACCCAGGGAACAGGUGGUGAUGAGGUUGAUGAUUCAGUGAGUGUAAAUGACAUAGAUUUAAGCCUGUACAUCCCAAGAGAUGUAGAUGAAACAGGUAUUACUGUAGCCAGU: 1.5 ratio
GUGCUCUUCUAUACCACACGGCCGCGUGACAGCCACCGGGGCAGGCCAGGCCUGGGCAGGGGCUAUGGCUACCGCGUGCACCACGACGUUGUCGCCGGGGACGUCCACUUCGAGCACCCA: 0.5 ratio
ACUAGUGAUUCUAGUGAAGGAAAAACAAAAAGUGUACGGCAUGCGUAUGUCCACAAACCAUAUCUUUACUCAAAAUACUAUAGUGAUUCUGAUGAUGAGCUUACUGUAGAACAACGACGA: 0.292 ratio
UGGAGUCUGGCUUUGAAAGAUUUCAUUGUUGGUAGAAAUAACAGGUUGAGAAAGAGGGAGUUAGCAUCACCUAAAACCUGCACGUGAACAAGGGUUGACAUGAUACACUAUGGCCUUAGA: 0.735 ratio
CUCUUAAAAGACUAUGAAGAUAAAGUCCGAGAGGAGUAUGAGCAAAUCCUCAGUACCAAACUCGCAGAACAGUAUGAAUCGUUUGUGAAAUUCACGCAUGAUCAGAUCAUGCGGCGAUAC: 0.148 ratio
UCAAGUGGACAUGAAGGAAGGGGUGGGGGGAGGGGCGGGUUUUUUUUUUUUCAAUAUAAGUAGCACAUGGUUUAAAUAUGAAUGACUGAACUUGUGAUCUAGUCCUUGUCUGGUAAUUGU: 23.7 ratio

Block 2 — technique: RNA Bind-n-Seq; form: RNA; matrix: in vitro; tested at: 365 nM; baseline: no-protein control; direction: higher = stronger binding; measurement: RBNS enrichment (R)
Target: RNA binding protein fox-1 homolog 2, RRM domain, GST-SBP tag (RBFOX2, Homo sapiens, UniProt O43251-10, residues 100-194)
Setting: natural RNA segment, single round, ends assumed
Constant ends, left off below: GGGAGUUCUACAGUCCGACGAUC … UGGAAUUCUCGGGUGCCAA
Construct (chain): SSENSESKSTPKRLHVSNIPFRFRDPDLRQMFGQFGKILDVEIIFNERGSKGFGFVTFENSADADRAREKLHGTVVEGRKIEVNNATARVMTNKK
AGAGAAUGGGAGGAGGGUCAUGUUGAAGUGUAGCCACUGGAACUUUCUUGCAUUUAUGGAGUUGCUUUUUCUUUCCCAAGGAAACUGAUGUUUGCCUGUCCGCUUUAUCU: 6.21
AAGACAGCACUCACUGGGAUGAAGCAGGGAGCAGGGCUGCCGCCACCCACAUUCCACUCUAGUUGGGGCUUGUGACUUAGCCCUGGACUCUGUUUCUGCAGGCAAGGGAC: 0.553
AAGAGGGGCCCAGUAUCAGUUUGUUGAAUUUGUCAAAUCUUUUCCUGGACAUAAAUGAGACUAUUGAAGGAAGUAACGUCCCACCGUCGUGAUGCUGUGUGAGAAGAUGG: 3.59
AAAAAAAAAACUAGUGUAGUACUGAGUGGGGCAUUCACUGUUGAUCAAGGUUAACCUCUUUAGAAAAGAUUAGUAAAGGAGAUCCCGAAUGAUAGAAGAUAGAAAGACUA: 0.605
CUCCUACGAGAGUUCUGGCAUAAAGAAGUAAAAAAGAAAAAGAAAAAAACAAACAAAAAAACCAAACCACCUCUACAUAUUAUGGAAAGAAAAUAUUUUUGUCAAUUCUU: 0.801
UGGCAUAUGUUUAAGGUAACAAAAAGAUCAGGAGUUGCCUCUGGCCUCUAAAGUGCCAAGGGACCAAUCAUUGAUGUUCCAUGGAGCCAGUCAUGGAAAUCCCUGGAAGG: 0.465
GAGGUACAAGAGCCUGUUUACCUCAUAGAGUGUUUGGGCUCGGAAGUAAAAGUGAAGUUAUUUUGAAGAAAACAACUCAUUUCCAAGGACGACAUGACGACGUGCCUUUU: 0.34
AAAUCAAGAAGCUUAAAACUGCACCUGUGGAGUGCCACCCGAGCCAACACAUCAAAUAAUGCAUUGAAUAUUUAUGAAAAAGUAUAUUUAUACUCUCAGAUAGUUUGCUC: 0.874
AUAAAUUCAAAUAUAUUUUUCUCCAAACUGCCAAAGGGAAAGUAGAAUUGUGGAGGGAAAUGAAAUAUCCAUGUACCAGGCCAGGCAGAUGGUCAGUUAGGAUGACAAUA: 0.795
CCAGGAGGCUUGGAGCUUGGACAGUGUGUGGUCUUCUCCCUAUCUUGCCUCCUGAUUUUUUUUUUCUCCCUCCGUUGUUGUUUUGGAAAAAAGUCUACUUUUCCAUCUAA: 0.855
ACUGUCACGAGAAUAGCACGGGAAAGACUGGCCCCCAUGAUUCAAUUACCUCCCCCUGGGUCUGUCCCACAACACGUGGGAAUUCUGGGAGAUACAAUUCAAGUUGAGAU: 1.44
GCCUCGUCCCCUCCCCUGGUGCCUGUGUCUGCAGAAAAACAAGACCAGAUGUGAUUUGUUUUUAAAAUAAGAUGAUGACAACGACAACCACACGCAAACCAACAAACAAA: 0.527

Block 3 — technique: aptamer microarray, sandwich; form: DNA with 2'F-ANA; matrix: in vitro; tested at: 200 nM; added: Cy3 exosite-II aptamer, 400 nM; direction: higher = stronger binding; measurement: mean fluorescence intensity; oligonucleotide: GGTTGGTGTGGTTGG
Target: Prothrombin, mature alpha-thrombin (F2, Homo sapiens, UniProt P00734)
Setting: whole 15-mer aptamer, many near background
2'F-ANA at 1 6 10 11 12 13: 62.3 a.u.
2'F-ANA at 1 3 5 6 13 15: 49.7 a.u.
2'F-ANA at 7 9 12 14 15: 234 a.u.
2'F-ANA at 1 2 5 6 7 9 10 13: 65.3 a.u.
2'F-ANA at 1 3 6 7 11 12: 407 a.u.
2'F-ANA at 1 4 5 12: 119 a.u.
2'F-ANA at 1 4 6 11 12 15: 179 a.u.
2'F-ANA at 1 3 5 7 11 12 13 14: 45 a.u.
2'F-ANA at 7 12 13 14: 249 a.u.
2'F-ANA at 1 2 3 6 7 15: 215 a.u.
2'F-ANA at 1 2 5 6 8 10 11 13 14 15: 53.6 a.u.
2'F-ANA at 3 4 5 6 10 11 14 15: 47.8 a.u.
2'F-ANA at 1 3 4 5 6 8 9 10 11 14 15: 71.1 a.u.
2'F-ANA at 4 6 7 8 9 10 12 13 14: 60.4 a.u.
2'F-ANA at 1 2 4 6 7 8 9 13 14 15: 61.9 a.u.
2'F-ANA at 2 3 5 8 10 12 13 14 15: 50.1 a.u.
2'F-ANA at 1 3 5 8 10 13 15: 59.5 a.u.
2'F-ANA at 2 4 5 6 14 15: 46.7 a.u.
2'F-ANA at 1 2 3 5 6 8 9 11 12 13 15: 74.9 a.u.
2'F-ANA at 3 6 8 9 10 11 13 15: 401 a.u.
2'F-ANA at 2 3 8 9 14 15: 430 a.u.
2'F-ANA at 3 7 8 9 10 12 14 15: 431 a.u.
2'F-ANA at 1 2 5 7 9 10 11 12 14 15: 46.8 a.u.
2'F-ANA at 3 6 8 10 11 15: 452 a.u.
2'F-ANA at 1 2 3 6 7 8 9 12 15: 437 a.u.

Block 4 — technique: universal PBM; form: double-stranded DNA, one strand shown; matrix: in vitro; tested at: 600 nM; direction: higher = stronger binding; measurement: E-score
Target: Sal-like protein 4, full length isoform A (SALL4, Homo sapiens, UniProt Q9UJQ4, residues 1-1053)
Sequence of UniProt Q9UJQ4 (whole entry, looked up): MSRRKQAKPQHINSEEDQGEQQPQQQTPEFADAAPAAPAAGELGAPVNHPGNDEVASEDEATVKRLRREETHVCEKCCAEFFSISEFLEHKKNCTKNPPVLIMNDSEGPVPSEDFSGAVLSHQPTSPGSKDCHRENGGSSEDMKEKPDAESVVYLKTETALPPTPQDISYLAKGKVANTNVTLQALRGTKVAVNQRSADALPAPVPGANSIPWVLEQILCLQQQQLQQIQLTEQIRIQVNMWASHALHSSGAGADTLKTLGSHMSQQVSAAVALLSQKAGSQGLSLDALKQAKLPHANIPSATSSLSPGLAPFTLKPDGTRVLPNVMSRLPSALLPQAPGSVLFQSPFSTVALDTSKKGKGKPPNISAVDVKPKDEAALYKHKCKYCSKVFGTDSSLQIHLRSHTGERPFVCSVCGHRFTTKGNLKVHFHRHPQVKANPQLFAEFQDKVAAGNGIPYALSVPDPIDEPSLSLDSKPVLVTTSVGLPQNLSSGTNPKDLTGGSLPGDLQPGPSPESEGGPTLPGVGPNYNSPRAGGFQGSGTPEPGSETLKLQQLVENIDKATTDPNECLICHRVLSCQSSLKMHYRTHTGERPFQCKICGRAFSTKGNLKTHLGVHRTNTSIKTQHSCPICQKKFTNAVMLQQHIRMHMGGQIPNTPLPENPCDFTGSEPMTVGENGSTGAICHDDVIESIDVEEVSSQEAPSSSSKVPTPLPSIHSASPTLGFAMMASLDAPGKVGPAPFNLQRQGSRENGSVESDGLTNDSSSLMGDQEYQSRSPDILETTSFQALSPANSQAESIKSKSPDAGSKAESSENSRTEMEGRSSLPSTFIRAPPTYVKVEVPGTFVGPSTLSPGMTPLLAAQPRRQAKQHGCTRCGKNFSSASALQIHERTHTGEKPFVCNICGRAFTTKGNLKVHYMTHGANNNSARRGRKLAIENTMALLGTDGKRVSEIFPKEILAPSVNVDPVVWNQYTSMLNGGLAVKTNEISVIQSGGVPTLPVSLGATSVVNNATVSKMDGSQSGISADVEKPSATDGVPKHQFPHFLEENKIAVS
Setting: 8-mer, flanks averaged, mean of replicates
GCCCGAAC: -0.184
AGGTCGAT: -0.0329
CACTATAC: 0.188
ACGGAGTG: -0.106
TGGAAAAA: 0.285
CATCTTGG: 0.0106
CTCGCATA: 0.0346
GAAGAACA: 0.0954
GCTGTACC: -0.205
AGCACTGC: -0.134
CTTAACAC: 0.0778
ATGGTGTA: 0.155
GGTGGAAC: -0.0522
CCGAGCGG: -0.358
GCGACTAC: -0.127
ACTGTCAA: 0.0442
GGAGACCC: -0.32
ACTTATCG: -0.0184
ACAACAGC: -4.5e-05
CTGTGTAA: 0.163
AGGATACA: 0.0595
GCTTATTA: 0.323
CCCCGAGG: -0.393
GTTTGTCA: 0.107

Some of these lines once more (block 4):
CTTAACAC: 0.0778
ATGGTGTA: 0.155
GGTGGAAC: -0.0522
CCGAGCGG: -0.358
GCGACTAC: -0.127
ACTGTCAA: 0.0442
GGAGACCC: -0.32
